Results collected from several papers.
Every numbered part comes from another study and shows a few of its results, in no order.

Sample 1 — read-out: enzyme activity; mode: inhibitor; concentration: 10 µM; measurement: inhibition
Target: Calcium/calmodulin-dependent protein kinase type II subunit alpha (CAMK2A, Homo sapiens, UniProt Q9UQM7)
Chain of UniProt Q9UQM7 (whole entry, looked up): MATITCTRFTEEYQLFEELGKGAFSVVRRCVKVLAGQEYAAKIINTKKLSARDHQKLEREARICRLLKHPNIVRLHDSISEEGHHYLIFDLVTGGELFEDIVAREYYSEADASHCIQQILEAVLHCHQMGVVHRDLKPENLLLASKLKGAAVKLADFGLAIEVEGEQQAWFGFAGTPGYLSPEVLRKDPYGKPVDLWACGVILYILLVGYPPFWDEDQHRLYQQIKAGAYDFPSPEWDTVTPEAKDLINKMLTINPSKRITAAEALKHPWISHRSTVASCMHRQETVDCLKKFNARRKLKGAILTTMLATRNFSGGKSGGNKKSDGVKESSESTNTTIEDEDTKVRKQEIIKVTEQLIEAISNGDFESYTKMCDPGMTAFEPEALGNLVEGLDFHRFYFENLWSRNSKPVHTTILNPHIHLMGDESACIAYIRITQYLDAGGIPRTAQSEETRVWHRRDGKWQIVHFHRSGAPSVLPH
CNc1ccc2oc(C[C@H]3O[C@@]4(CC[C@H]3C)O[C@H]([C@H](C)C(=O)c3ccc[nH]3)[C@H](C)C[C@H]4C)nc2c1C(=O)O: -33%
Cc1c2ccncc2c(C)c2c1[nH]c1ccccc12: -9%
CC[C@@H](C(N)=O)N1CCCC1=O: -11%
COc1cc2c(cc1OC)[C@@H]1C(=O)c3ccc4c(c3O[C@@H]1CO2)C=CC(C)(C)O4: -18%

Sample 2 — cell line: HH; concentration: 2 µM; time: 48 h; reference: untreated; measurement: viability
N#CC(C#N)=Cc1ccc(O)c(O)c1: 102%
NC(=O)Nc1sc(-c2ccc(F)cc2)cc1C(N)=O: 33.4%
C/C(O)=C(\C#N)C(=O)Nc1cc(Br)ccc1Br: 126%
CC(C)(C)c1cc(C=C(C#N)C#N)cc(C(C)(C)C)c1O: 80.1%

Sample 3 — cell line: A-375; concentration: 100 µM; time: 18 h; measurement: viability
CC(O)(CS(=O)(=O)c1ccc(F)cc1)C(=O)Nc1ccc(C#N)c(C(F)(F)F)c1 (stereo not shown): 60.3%
C=CC[C@]1(O)CC[C@H]2[C@@H]3CCC4=CCCC[C@@H]4[C@H]3CC[C@@]21C: 8.16%
Cc1cccc(C)c1N=C1NCCCS1: 99.4%
C=C1CC[C@@]2(O)[C@H]3Cc4ccc(O)c5c4[C@@]2(CCN3CC2CC2)[C@H]1O5: 103%

Other studies, line by line
C[C@]12CC[C@@H](O)C[C@@H]1CC[C@@H]1[C@@H]2CC[C@]2(C)C(=O)CC[C@@H]12  nuclear SOX9 intensity (mouse MPNST tumor cells; high-content immunofluorescence imaging, measured: nuclear SOX9; 10 µM, 12 h, mean of 2 replicates; reference: DMSO control, higher = more nuclear SOX9): 90.1 % of DMSO
